Measured values collected from several papers.
Protocols differ between the studies behind these lines. “And” joins repeats or separate records; there may be more than shown. ± marks the error that the study gave.
MPO mature: MPO mature (Homo sapiens, UniProt P05164)
PPIA: PPIA (Homo sapiens, UniProt P62937)
KPC-2: KPC-2 (Klebsiella pneumoniae, UniProt Q9F663)
B1: eutB (Salmonella enterica, UniProt P19264); chain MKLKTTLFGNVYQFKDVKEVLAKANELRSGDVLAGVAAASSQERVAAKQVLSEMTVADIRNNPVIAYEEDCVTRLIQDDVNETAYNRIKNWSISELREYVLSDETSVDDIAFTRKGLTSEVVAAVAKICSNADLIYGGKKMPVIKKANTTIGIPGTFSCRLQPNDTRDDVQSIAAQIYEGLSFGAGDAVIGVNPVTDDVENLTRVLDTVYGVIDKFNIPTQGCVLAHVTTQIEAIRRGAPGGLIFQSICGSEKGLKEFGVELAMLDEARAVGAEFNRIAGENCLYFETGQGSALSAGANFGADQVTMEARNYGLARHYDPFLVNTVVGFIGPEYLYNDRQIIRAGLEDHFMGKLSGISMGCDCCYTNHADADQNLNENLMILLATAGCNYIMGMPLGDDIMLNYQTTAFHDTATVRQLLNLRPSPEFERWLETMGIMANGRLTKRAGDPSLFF

B1 (eutB)  binding (eutA (Salmonella enterica, UniProt Q9ZFV2); cross-linking): binds
insulin human  fold change (refers to: PDK1 mRNA; EcoHIV-infected mouse, brain; i.p., dose not given; baseline: PBS): 0.907
heparin sodium  drug-related decreased neutrophil (healthy Chinese adult volunteers; continuous intravenous infusion, 8 IU/kg/h, 5 days): 25%
HVLVMSATRR  calcium (peptide, C57BL/6J mice, male, serum; subcutaneous osmotic pump, 3 mg/kg/day peptide basis, 8 weeks): 9.7 mg/dL and 8.5 mg/dL and 9.1 mg/dL and 9.6 mg/dL
nlpI mature soluble domain (Escherichia coli, UniProt P0AFB1)  binding (prc K477A (Escherichia coli, UniProt P23865); competition, SEC): binds
aspterric acid  inhibition (root length; Arabidopsis thaliana Col-0 seeds; 25 µg/mL): 99.2%
SPIN mature (Staphylococcus aureus)  IC50 (MPO mature; MPO peroxidase activity, inhibitor; L49A variant): 7.4 nM
CHLWFTDGVLC (BLIP cyclic peptide (Streptomyces clavuligerus); C-terminal amide, cyclic, disulfide)  koff (TEM-1 β-lactamase (UniProt P62593); BLI; peptide): 0.00015 s⁻¹
hexaarginine  Kd (PorA peptide pore; peptide binding, planar bilayer single-channel recording; pH 7.4, +5 mV, trans side, 150 mM KCl): 3260 ± 300 nM
NS5A mature (hepatitis C virus, UniProt Q9WMX2)  signal over control (PPIA; AlphaScreen; in vitro translated; baseline: control reactions RLU, higher = stronger interaction): 2.3 fold
AGAENCETGGSFGDSIHCRGHAAGDYYAY (bli 61-89 (Streptomyces clavuligerus, UniProt P35804))  Kd (TEM-1 β-lactamase mature (UniProt P62593); BLI; peptide): 1200 nM
NS5A fragment (hepatitis C virus)  signal over GST-CypA (PPIA H126Q (Homo sapiens); AlphaScreen; H126Q; baseline: GST-CypA RLU, higher = stronger interaction): 2.7 fold
CAIAGGYFHGLALKGC (BLIP-II cyclic peptide (Streptomyces); C-terminal amide, cyclic, disulfide)  Kd (KPC-2; BLI; peptide): 310 ± 7 nM
SPIN mature E50A (Staphylococcus aureus)  IC50 (MPO mature; MPO peroxidase activity, inhibitor; L49A variant): 8.9 nM
CWSEYYPAYC (BLIP cyclic peptide (Streptomyces clavuligerus); C-terminal amide, cyclic, disulfide)  Kd (KPC-2; BLI; peptide): 510 ± 8 nM
gag CA CTD fragment F167Y/R185W (Rous sarcoma virus)  Kd (itself; ITC): 540000 ± 230000 nM
RRLEDAEYAARG (A7 peptide; fluorescein label)  binding (SSA1 (Saccharomyces cerevisiae, UniProt P10591); fluorescence polarisation; peptide; with: ADP): binds
Neuromedin B  ΔF/F0 (HCRTR2 (Homo sapiens, UniProt O43614, del254-292/I293E/K294R/L160H/M161K/Q254E); sensor fluorescence, fluorescence imaging; HEK293T; concentration not given, unit not given; baseline: baseline): 0.299 and -0.774 and -1.92 and 0.217 and -1.45
NS5B mature (hepatitis C virus)  specific window (PPIA; luciferase, two-hybrid; CHO; baseline: VP16 alone, higher = stronger interaction): 2.6 fold
CDGYSSTGFYRGSAHLWFC (MBP/BLIP cyclic peptide (Streptomyces clavuligerus); cyclic)  koff (KPC-2; SPR; peptide): 0.0016 s⁻¹
nonaarginine  kon (PorA peptide pore; peptide binding, planar bilayer single-channel recording; 0.5 µM, pH 7.4, -15 mV, cis side, 150 mM KCl): 6e+06 ± 600000 M⁻¹ s⁻¹

Some of these lines once more:
heparin sodium  drug-related decreased neutrophil (healthy Chinese adult volunteers; continuous intravenous infusion, 8 IU/kg/h, 5 days): 25%
NS5B mature (hepatitis C virus)  specific window (PPIA; luciferase, two-hybrid; CHO; baseline: VP16 alone, higher = stronger interaction): 2.6 fold
